Assay results of several laboratories.
Protocols differ between the studies behind these lines. Several values in a cell are separate wells, animals, samples, runs or records. ± gives the spread as reported.

SMILES | cell line | assay | conditions | scale | endpoint | result
NC(Cc1ccccc1)C(=O)N1CC(=Cc2ccc(Cl)c(Cl)c2)C(=O)C(=Cc2ccc(Cl)c(Cl)c2)C1 (stereo not drawn) | BRD4-HiBiT cells | BRD4 degradation rescue, inhibitor | 2 h, with: dBET6 500 nM | – | EC50 | 1180 nM
CCCC(CCC)C(=O)OCc1cn(-c2cc3ccccc3oc2=O)nn1 | UO-31 | NCI60 single-dose screen | 10 µM | – | growth percentage | 91.9%
O=C(C[Se]C(=O)c1cc2ccccc2[nH]1)Nc1cccc(C(F)(F)F)c1 | NCI60 colon subpanel | NCI60 five-dose screen | – | – | GI50 | 2550 nM
COC(=O)c1cc(NC2=NC(=O)C(=Cc3ccc(N(C)C)cc3)S2)ccc1OC(C)=O | MCF7 | GC-MS, measured: Butanedioic acid | 1 µM | baseline: DMSO | metabolite level | -0.18 fold change
O=C(O)C1OC(Oc2cc(-c3oc4cc(O)ccc4c(=O)c3O)ccc2O)C(O)C(O)C1O (stereo not drawn) | MDCKII-UGT1A1/MRP2 cells | glucuronide efflux, substrate | – | – | Jmax | 15.2 ± 1.06 pmol/mg/min
COc1ccc(NC(=O)c2ccc3[nH]c(-c4ccc(N(C)C)cc4)nc3c2)cn1 | HCT116 | IncuCyte | concentration not given, 10 h | – | dead cell to confluence ratio | 65.6 and 15.4 and 46.7
CC(=O)N[C@@H](CC(=O)O)C(=O)N[C@@H](CCC(=O)O)C(=O)N[C@H](C(=O)N[C@@H](CC(=O)O)C(=O)COC(=O)c1c(C)cccc1C)C(C)C | THP-1 cells expressing FKBP-caspase-11 | pyroptosis, inhibitor | concentration not given, with: B/B dimerizer | – | LDH release | 22.8% and 25% and 17.4%
CCN(C(=O)c1cc(F)ccc1Oc1nncnc1N1CCC2(C1)CN([C@H](CCCN(C)CCOC)C(C)C)C2)C(C)C | SK-N-AS | cell growth | 72 h | – | GI50 | > 10000 nM
CC(C)n1nc(C(F)F)cc1C(=O)Nc1ccc([C@H]2[C@@H](O)CCCc3cncn32)c(-c2ccccc2)c1 | BRD4-HiBiT cells | BRD4 degradation rescue, inhibitor | 24 h, with: dBET6 500 nM | – | EC50 | 40.1 nM
CCOc1cncc(-c2ccc(NC(=O)C3(c4ccnc(NS(=O)(=O)C5CC5)n4)CCOCC3)nc2)n1 | SK-N-AS | cell growth or viability, ATP luminescence | 72 h | – | IC50 | 41 nM
CO[C@@H]1[C@@H](OC(N)=O)[C@@H](O)[C@H](Oc2ccc3c(O)c(NC(=O)c4ccc(O)c(CC=C(C)C)c4)c(=O)oc3c2C)OC1(C)C | HCT-116 parental | – | 50 µM, replicate 2 | – | colony count | 19.5
Cn1ncc(-c2ccc3c(=O)[nH]nc(CN)c3c2)c1-c1c(F)c(Cl)cc(OC2CC2)c1C#N | Reh | cell viability, inhibitor, CellTiter-Glo | 120 h | – | IC50 | 80 nM
C/C1=C\CC/C(C)=C/CC(C)(C)/C=C/C1 | mouse DRG neurons | inhibitor, whole-cell patch clamp | 100 µM, 5 min, at -10 mV, cultured 0.08333 h | – | remaining sodium current | 90 ± 5%
CCNc1cc2c(cc1C)C1(c3cc(C)c(NCC)cc3O2)c2ccccc2C(=O)N1N=Cc1c[c-]c(-c2ccccn2)cc1.Cc1c(C)c(-c2ccc(-c3ccccc3)cc2)[c-](C)c1C.[Cl-].[Ir+3] | A549 | PI flow cytometry | 0.25 x IC50, 24 h | – | S phase cells | 30.07 ± 0.2%
C1=[N+]2CCCC[N+]3=Cc4ccc5[n]4[Au-]23[n]2c1ccc2-c1nc2ccccc2nc1-5.F[P-](F)(F)(F)(F)F | LOX IMVI | NCI60 five-dose screen | – | – | TGI | 4 -log M
O=C(C[Se]C(=O)c1ccc2ccccc2n1)Nc1cccc(C(F)(F)F)c1 | NCI60 colon subpanel | cell growth | 10 µM, 48 h, one-dose | – | mean growth percent | -54.2%
CN1CC[C@@H](COc2cnc(C#N)cc2-c2ccn3nc(NC(=O)C4CC4)cc3c2)C1 | human monocyte-derived macrophages | IL-10 release, inducer | 3 h, with: LPS | – | EC50 | 420 nM
CN(C)c1ccc(-n2cc(COC(=O)[C@@]3(C)C=C(C(=O)OC(C)(C)C)C(=O)CC3)nn2)cc1 | HeLa | quantitative western blot | concentration not given, 7 (unit not given), with: EGF | – | pERK/ERK ratio | 0.449

SMILES | cell line | assay | conditions | scale | endpoint | result
C#CCCCC(F)/C=C/C(=O)NC1(c2ccc(-c3nc4ccn5c(=O)[nH]nc5c4cc3-c3ccccc3)cc2)CCC1 (stereo not drawn) | MDA-MB-468 | flow cytometry, PI staining | EC60 concentration, 72 h, DMSO 39.2 | – | cells in G0/G1 phase | 46.4%
COc1ccccc1-c1ccncc1C(=O)Nc1nnc(OCc2ccc(Cl)cc2)s1 | Brca1 Δ11/Δ11 MEFs with sgGFP | – | 1.25 µM, 500 cells/well | – | colony survival | 105% and 82.5% and 72.1%
COc1ccc2c(c1)c(CC(=O)[Se]CC(=O)Nc1cccc(C(F)(F)F)c1)c(C)n2C(=O)c1ccc(Cl)cc1 | NCI60 colon subpanel | NCI60 five-dose screen | – | – | GI50 | 5650 nM
C#CCOC(=O)[C@@]1(C)C=C(C(=O)Nc2cccc(C(=O)Nc3ccc(C)c(Nc4nccc(-c5cccnc5)n4)c3)c2)C(=O)CC1 | SH-SY5Y MKK7 ACT | western blot, measured: c-Jun Ser73 | 0.03 µM, 6 h, unit not given, with: doxycycline | baseline: doxycycline without inhibitor | phosphorylation | 0.989
CSC(=S)N/N=C(\C)c1ccc(Nc2nnc(-c3ccc(Cl)cc3)c3ccccc23)cc1 | MCF7 | cell growth or viability, MTT | 0.156 µM | – | cell death | 49.2%
CNS(=O)(=O)Nc1nccc(Cc2c(C)c3ccc(Oc4ncccc4F)cc3oc2=O)c1F | T24 | cell viability | 7 days | – | IC50 | > 1000 nM
O=C(O)C1OC(Oc2c(-c3ccc(O)cc3)oc3cc(O)ccc3c2=O)C(O)C(O)C1O (stereo not drawn) | MDCKII-UGT1A1/MRP2 cells | glucuronide efflux, substrate | – | – | Jmax | 4.8 ± 1.4 pmol/mg/min
COc1cccc(OC)c1-c1cc(C(=O)NC2(C(=O)O)C3CC4CC(C3)CC2C4)nn1-c1ccc(C(=O)N(C)CCOCCN(C)C(=O)[C@H](CCCCNC(=O)[C@H](CC(C)C)NC(=O)C2OC2C(=O)O)NC(=O)CN2CCN(CC(=O)[O-])CCN(CC(=O)[O-])CCN(CC(=O)[O-])CC2)cc1C(C)C.[177Lu+3] (mixture of isomers) | HT-29 | – | concentration not given, 120 min | baseline: added activity | surface-bound fraction | 3.19 ± 0.32%
CCN(CC)CC(=O)Nc1cccc(-n2cc(-c3ccc4ccc(-c5cn(-c6cccc(NC(=O)CN(CC)CC)c6)nn5)cc4c3)nn2)c1 | RCC4 | PCR angiogenesis array, measured: TNF | 5 x IC50, 2 h, normoxia | baseline: untreated | fold regulation | 1.16 fold
CCCCCCCCCCCC(=O)N[C@@H](CO)C[C@@H](O)c1cccc(CCCCCC)c1 | HeLa | CERT activity, HPLC-MS/MS lipidomics, measured: ceramide 24:1 | 1 µM, 24 h, not cell-number normalised | – | ceramide level | 22000 pmol/sample and 15400 pmol/sample and 17300 pmol/sample
Cn1ncc2cc(-c3cncc(Cl)c3N3CCC4(CCNC4=O)CC3)ccc21 | LS174T | gene expression, microarray, measured: RRM2 mRNA | concentration not given, 4 h | baseline: untreated cells | log2 fold change | -1.4
CCn1nc(Cl)c2c1-c1cnc(N)c(c1)O[C@H](C)c1cc(F)ccc1-c1nn(C)cc1C2 | Ba/F3 TPM3-TRKA | cell viability | – | – | IC50 | 181 nM
Cc1ncsc1-c1ccc(C(C)NC(=O)C2CC(O)CN2C(=O)C(NC(=O)CCCCCCCCCCN2CCCC(Nc3ncc(Cl)c(Nc4ccccc4S(=O)(=O)C(C)C)n3)C2)C(C)(C)C)cc1 (stereo not drawn) | 22Rv1 | RNA-seq, measured: TRIM66 mRNA | concentration not given | baseline: DMSO | log2 fold change | -1.38
O=C(Nc1nnc2c1c(-c1ccc(Cl)cc1)nc1sc(=Cc3ccco3)c(=O)n12)c1ccccc1 (mixture of isomers) | UO-31 | SRB | 10 µM, NCI60 single-dose screen | baseline: untreated | cell growth | 29.6%
O=C(C[Se]C(=O)c1cccnc1Nc1cccc(C(F)(F)F)c1)Nc1cccc(C(F)(F)F)c1 | NCI60 colon subpanel | NCI60 five-dose screen | – | – | GI50 | 2500 nM
CC(C)c1ccc(N(C)c2ccc3c(c2)OCC[C@H]3CNc2cnccc2C(=O)O)cc1 | BFTC-905 | cell viability, CellTiter-Glo | 7 days | – | IC50 | 9.91 nM
CNC(=O)CCN(Cc1ccc(C(F)F)cc1)C(=O)c1cc2c(OC)ccc(-c3ccc(=O)n(C)c3)c2s1 | murine AML cells | BRD4 chromatin occupancy, ChIP-seq, measured: BRD4 at Irf2bp2 locus | concentration not given, chr8:129222581-129232059 | baseline: DMSO, higher = more occupancy | BRD4 ChIP-seq tag count | 50.1 a.u.
CN1CCCNC(=O)c2cccc(c2)C(=O)NCCCN(C)CCCNc2cccc3c2C(=O)c2cccc(c2C3=O)NCCC1 | SAS | RNA-Seq, measured: BLCAP mRNA | 1 µM, 6 h | baseline: untreated cells | log2 fold change | -0.484

Some of these lines once more:
SMILES | cell line | assay | conditions | scale | endpoint | result
CCCCCCCCCCCC(=O)N[C@@H](CO)C[C@@H](O)c1cccc(CCCCCC)c1 | HeLa | CERT activity, HPLC-MS/MS lipidomics, measured: ceramide 24:1 | 1 µM, 24 h, not cell-number normalised | – | ceramide level | 22000 pmol/sample and 15400 pmol/sample and 17300 pmol/sample
O=C(O)C1OC(Oc2c(-c3ccc(O)cc3)oc3cc(O)ccc3c2=O)C(O)C(O)C1O (stereo not drawn) | MDCKII-UGT1A1/MRP2 cells | glucuronide efflux, substrate | – | – | Jmax | 4.8 ± 1.4 pmol/mg/min
Cn1ncc(-c2ccc3c(=O)[nH]nc(CN)c3c2)c1-c1c(F)c(Cl)cc(OC2CC2)c1C#N | Reh | cell viability, inhibitor, CellTiter-Glo | 120 h | – | IC50 | 80 nM
CSC(=S)N/N=C(\C)c1ccc(Nc2nnc(-c3ccc(Cl)cc3)c3ccccc23)cc1 | MCF7 | cell growth or viability, MTT | 0.156 µM | – | cell death | 49.2%
CO[C@@H]1[C@@H](OC(N)=O)[C@@H](O)[C@H](Oc2ccc3c(O)c(NC(=O)c4ccc(O)c(CC=C(C)C)c4)c(=O)oc3c2C)OC1(C)C | HCT-116 parental | – | 50 µM, replicate 2 | – | colony count | 19.5
